Measured values of several laboratories.
Lines come from different studies, so protocols differ. Numbers after ± are the reported error. Converted amounts (≈) assume the structure as drawn.
UniProt Q96S44, sequence (whole entry, looked up): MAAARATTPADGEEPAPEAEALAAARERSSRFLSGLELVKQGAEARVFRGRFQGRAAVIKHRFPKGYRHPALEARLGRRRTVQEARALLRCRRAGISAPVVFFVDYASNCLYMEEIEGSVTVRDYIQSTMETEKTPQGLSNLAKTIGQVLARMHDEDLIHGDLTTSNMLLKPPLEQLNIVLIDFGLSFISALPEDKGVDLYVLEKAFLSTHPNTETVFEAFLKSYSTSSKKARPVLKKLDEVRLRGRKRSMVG
UniProt P23946, sequence (whole entry, looked up): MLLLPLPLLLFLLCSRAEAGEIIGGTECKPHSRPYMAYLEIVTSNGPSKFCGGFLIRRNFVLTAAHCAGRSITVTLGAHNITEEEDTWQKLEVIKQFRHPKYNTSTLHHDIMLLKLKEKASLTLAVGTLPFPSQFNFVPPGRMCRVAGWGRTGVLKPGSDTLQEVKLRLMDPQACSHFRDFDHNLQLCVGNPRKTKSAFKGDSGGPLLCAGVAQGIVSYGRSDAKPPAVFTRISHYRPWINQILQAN
UniProt P08069, sequence (whole entry, looked up): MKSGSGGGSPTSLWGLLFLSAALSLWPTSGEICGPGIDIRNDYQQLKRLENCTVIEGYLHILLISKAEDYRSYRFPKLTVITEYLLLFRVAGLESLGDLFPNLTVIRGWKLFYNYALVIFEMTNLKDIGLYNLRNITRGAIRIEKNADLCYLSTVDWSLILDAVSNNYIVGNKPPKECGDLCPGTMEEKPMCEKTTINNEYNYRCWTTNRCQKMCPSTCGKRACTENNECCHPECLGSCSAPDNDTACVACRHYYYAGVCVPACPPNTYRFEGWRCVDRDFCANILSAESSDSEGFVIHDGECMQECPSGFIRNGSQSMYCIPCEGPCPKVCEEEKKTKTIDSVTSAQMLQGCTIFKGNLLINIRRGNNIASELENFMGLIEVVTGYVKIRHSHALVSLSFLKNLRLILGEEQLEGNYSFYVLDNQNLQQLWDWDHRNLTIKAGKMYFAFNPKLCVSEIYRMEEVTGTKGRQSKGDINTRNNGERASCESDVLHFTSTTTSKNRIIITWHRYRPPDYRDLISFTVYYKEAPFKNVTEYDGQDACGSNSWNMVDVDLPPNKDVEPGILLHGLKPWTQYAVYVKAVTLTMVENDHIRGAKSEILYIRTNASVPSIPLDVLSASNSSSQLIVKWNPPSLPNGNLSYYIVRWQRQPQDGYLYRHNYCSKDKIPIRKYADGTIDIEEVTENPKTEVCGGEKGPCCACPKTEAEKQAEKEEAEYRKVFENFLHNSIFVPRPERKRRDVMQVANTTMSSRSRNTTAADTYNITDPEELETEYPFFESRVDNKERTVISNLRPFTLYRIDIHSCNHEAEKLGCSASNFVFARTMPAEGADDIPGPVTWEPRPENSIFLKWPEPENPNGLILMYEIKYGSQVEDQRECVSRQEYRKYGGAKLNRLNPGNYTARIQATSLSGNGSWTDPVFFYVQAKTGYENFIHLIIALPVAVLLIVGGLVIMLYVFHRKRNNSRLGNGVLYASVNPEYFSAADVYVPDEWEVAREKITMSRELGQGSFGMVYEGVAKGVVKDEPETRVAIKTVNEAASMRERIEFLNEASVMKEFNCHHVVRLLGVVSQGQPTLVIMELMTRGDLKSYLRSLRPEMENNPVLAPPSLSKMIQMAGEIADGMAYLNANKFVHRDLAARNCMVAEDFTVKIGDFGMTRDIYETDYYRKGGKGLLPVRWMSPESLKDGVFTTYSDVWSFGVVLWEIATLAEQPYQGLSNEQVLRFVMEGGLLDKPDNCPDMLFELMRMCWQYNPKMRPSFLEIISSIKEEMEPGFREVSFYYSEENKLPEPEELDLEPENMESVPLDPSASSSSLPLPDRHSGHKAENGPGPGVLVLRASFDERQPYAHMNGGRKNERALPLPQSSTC

Compound	target or system	assay	system	conditions	how to read	endpoint	result
Cn1cncc1C1=CN(c2ncnc3[nH]cnc23)CCS1	CCRF-CEM			leukaemia cell line		CC50	> 200 µM
COc1cc2c(Oc3ccc4[nH]c(C)cc4c3F)ccnc2cc1OCC1(N)CC1			paediatric recurrent refractory sarcoma	8 mg		Hyperthyroidism incidence	0%
CN1CCN(C2(CNC3CCN(c4cccc(-c5cc6cc(F)ccc6[nH]5)c4)CC3)CCC2)CC1	MDA-MB-435					GI50	0.523 µM
COc1cc(CCC[P+](c2ccccc2)(c2ccccc2)c2ccccc2)c(OC)c2c1OCO2.[I-]	PC-3	SRB				LC50	> -4 log M
COc1c(C)c2c(c(O)c1C/C=C(\C)CCC(=O)O)C(=O)OC2	MINO	cell proliferation	blood cancer			IC50	0.229 µM
Oc1cc(O)cc(-c2cc3ccc(O)cc3o2)c1	MCF7	cell growth, MTT		3.6 µg/mL, 48 h		cell survival	79.24 ± 0.13%
CC[C@H](C)[C@H](NC(=O)[C@H](C)NC(=O)[C@H](CCCCN)NC(=O)[C@H](CC(C)C)NC(=O)[C@H](C)NC(=O)[C@@H](NC(=O)[C@H](Cc1c[nH]cn1)NC(=O)[C@H](CC(C)C)NC(=O)[C@@H](NC(=O)[C@@H](NC(=O)[C@H](CCCCN)NC(=O)[C@H](C)NC(=O)[C@H](C)NC(=O)[C@H](CO)NC(=O)[C@H](CCCCN)NC(=O)[C@H](Cc1ccccc1)NC(=O)[C@@H](NC(=O)[C@H](CCCCN)NC(=O)[C@H](CC(C)C)NC(=O)[C@H](Cc1ccccc1)NC(=O)[C@H](CO)NC(=O)[C@H](CCCCN)NC(=O)[C@H](Cc1c[nH]c2ccccc12)NC(=O)[C@H](CCCCN)NC(C)=O)[C@@H](C)O)[C@@H](C)O)C(C)C)[C@@H](C)O)C(=O)N[C@@H](CO)C(=O)N[C@@H](CO)C(N)=O	Acinetobacter baumannii		IPM-R	87 strains		MIC90	8 µg/mL (≈ 2.73 µM)
Nc1ncnc2c1ncn2[C@@H]1O[C@@H]2COP(=O)(O)O[C@H]3[C@@H](O)[C@H](n4cnc5c(=O)[nH]cnc54)O[C@@H]3COP(=O)(O)O[C@H]2[C@H]1O	HFF-1	RNA sequencing, item: Signal Transduction		upregulated pathway	baseline: Zika virus alone	pathway fold enrichment	1.54
Cc1cccc(-c2cccc(C)n2)n1.Cc1cccc(-c2cccc(C)n2)n1.F[P-](F)(F)(F)(F)F.F[P-](F)(F)(F)(F)F.[Ru+2].c1ccc2cc(-c3nc4c5cccnc5c5ncccc5c4[nH]3)ccc2c1	SK-MEL-28			1% O2, with: green light 523 nm, 100 J/cm2	baseline: dark over light EC50	phototoxicity index	1
COc1ccc(N2C(=O)N(c3c(C)cccc3Cl)Cc3cnc(Nc4ccc(C5CCN(C)CC5)cc4OC)nc32)nc1	IGF1R (Homo sapiens, UniProt P08069)	kinase activity		0.5 µM		inhibition	18%
COc1cc(Nc2ncc(F)c(Nc3ccc4c(n3)NC(=O)C(C)(C)O4)n2)cc(OC)c1OC	Chymase (CMA1, Homo sapiens, UniProt P23946)					IC50	> 10 µM
C[C@H]1CN(c2n[nH]c3nc(N[C@H]4CC[C@H](NS(=O)(=O)CCC(F)(F)F)CC4)ncc23)CCO1	TP53RK (Homo sapiens, UniProt Q96S44)	inhibitor, Kinobeads competition profiling		20 µM	baseline: vehicle	relative abundance	1.11
CO[C@H]1C[C@@H]2CC[C@@H](C)[C@@](O)(O2)C(=O)C(=O)N2CCCC[C@H]2C(=O)O[C@H]([C@H](C)C[C@@H]2CC[C@@H](OC(=O)NCCOCCOCCOCCOCCOCCOCCOCCOCCC(=O)N3CCc4cc(Cn5nc(-c6ccc7oc(N)nc7c6)c6c(N)ncnc65)ccc4C3)[C@H](OC)C2)C[C@@H](O)[C@H](C)/C=C(\C)[C@@H](O)[C@@H](OC)C(=O)[C@H](C)C[C@H](C)/C=C/C=C/C=C/1C		phase 1 dose escalation, item: headache	advanced solid tumour patients	intravenous, 16 mg weekly, any grade		TRAE incidence	50%
CN1CCN(S(=O)(=O)c2cc([N+](=O)[O-])ccc2N(CCOS(C)(=O)=O)CCOS(C)(=O)=O)CC1	sample C B-ALL PDX cells	cell viability	ex vivo	48 h, with: AKR1C3 inhibitor 1 µM, 1 h pretreatment		IC50	4.14 µM
CC[C@H](C)[C@@H]1NC(=O)[C@@H]2CCCN2C(=O)[C@H](CC(C)C)NC(=O)[C@H](CC(C)C)NC(=O)CNC(=O)[C@@H](NC(=O)[C@@H](NC(=O)[C@H](CC(=O)O)NC(=O)CNC(=O)[C@@H](NC(=O)[C@H](C)NC(=O)CNC(=O)[C@H](CCCCN)NC(=O)[C@H](CC(C)C)NC(=O)[C@H](CC(C)C)NC(=O)[C@H](CCCCN)NC(=O)CNC(=O)[C@@H](NC(=O)[C@@H](N)CC(C)C)C(C)C)C(C)C)C(C)C)CSSC[C@@H](C(=O)O)NC1=O		RNA-seq, item: Ppm1j	mouse, traumatic brain injury model, frontal cortex and hippocampus	dose not given	baseline: TBI alone	log2 fold change	-2.67
CC(C)=CCc1c(O)cc(O)cc1-c1cc2ccc(O)c(CC=C(C)C)c2o1	3T3	cell growth, MTT		3.6 µg/mL, 48 h		cell survival	90.37 ± 0.52%
COc1ccc2c(c1)[nH]c1c(C)nccc12	DU-145	bisulfite pyrosequencing, item: RASSF1A promoter CpG site 6		10 µM, 16 h		DNA methylation	88.1%
C[C@H]1[C@H](C)CC[C@]2(C(=O)O)CC[C@]3(C)C(=CC[C@@H]4[C@@]5(C)CC[C@H](O)C(C)(C)[C@@H]5CC[C@]43C)[C@H]12	MCF7	cell growth, MTT		3.6 µg/mL, 48 h		cell survival	75.8 ± 0.31%
CC(C)N1CCC(NC2CCN(c3cccc(-c4cc5cc(F)ccc5[nH]4)c3)CC2)CC1	MDA-MB-435					CC50	5.5 µM
Oc1ccc(C2(c3ccc(O)cc3)c3ccccc3-c3ccccc32)cc1	HepG2 spheroids	Hoechst flow cytometry		0.10 µM, 96 h		G1 phase cells	73.3 ± 6.64%
COc1c(CCC[P+](c2ccccc2)(c2ccccc2)c2ccccc2)cc2c(c1OC)OCO2.[I-]	MDA-MB-435	SRB				TGI	-5.3 log M
O=C1CCP(=S)(c2ccccc2)CC1	PC-3	annexin V/PI flow cytometry		IC50, 72 h		early apoptotic cells	1.15%

Excerpt of the above:
Compound	target or system	assay	system	conditions	how to read	endpoint	result
COc1ccc2c(c1)[nH]c1c(C)nccc12	DU-145	bisulfite pyrosequencing, item: RASSF1A promoter CpG site 6		10 µM, 16 h		DNA methylation	88.1%
C[C@H]1[C@H](C)CC[C@]2(C(=O)O)CC[C@]3(C)C(=CC[C@@H]4[C@@]5(C)CC[C@H](O)C(C)(C)[C@@H]5CC[C@]43C)[C@H]12	MCF7	cell growth, MTT		3.6 µg/mL, 48 h		cell survival	75.8 ± 0.31%
